Assay results of several laboratories.
Lines come from different studies, so protocols differ. Several values in a cell are separate wells, animals, samples, runs or records. Numbers after ± are the reported error.

O=C(NC1CCN(c2ncnc3[nH]cnc23)CC1)c1cccc(S(=O)(=O)Nc2ccc(Cl)cc2)c1  relative infection (SARS-CoV-2; Wuhan-Hu-1; 66.67 µM; relative to: untreated infected cells): 29.2%
Cc1cc(C(=O)N[C@@H](Cc2cccc3ccccc23)C(=O)N[C@@H](CC(C)C)C(=O)N[C@H](C=O)C[C@@H]2CCCNC2=O)no1  EC90 (human rhinovirus 16; cytopathic effect, SRB; MRC-5; 3 days): 0.7 ± 0.2 µM
CCN(CC)Cc1onc(-c2cccc(Cl)c2)c1-c1ccnc(N[C@@H]2CCN(C(=O)c3ccn(C)n3)C2)n1  activity class (Plasmodium falciparum; parasite growth; 3D7 A10; concentration not given, asexual blood stage): active
Cc1ccc(S(=O)(=O)Nc2cccc(C(=O)NC3CCN(c4ncnc5[nH]cnc45)CC3)c2)cc1Cl  relative infection (SARS-CoV-2; Wuhan-Hu-1; 22.22 µM; relative to: untreated infected cells): 28%
CC[C@H](C)[C@H](NC(=O)[C@H](C)NC(=O)[C@H](CCC(=O)O)NC(=O)[C@H](CCC(=O)O)NC(=O)[C@H](CC(C)C)NC(=O)[C@H](CCCCN)NC(=O)[C@H](CCCCN)NC(=O)[C@H](CCSC)NC(=O)[C@H](CCC(=O)O)NC(=O)[C@H](Cc1ccc(O)cc1)NC(=O)[C@H](CCC(=O)O)NC(=O)[C@H](CC(C)C)NC(=O)[C@H](CC(=O)O)NC(=O)[C@H](CC(C)C)NC(=O)[C@H](Cc1ccccc1)NC(=O)[C@H](Cc1ccccc1)NC(=O)[C@@H](NC(=O)[C@H](CC(N)=O)NC(=O)[C@@H](NC(=O)[C@H](CCC(N)=O)NC(=O)[C@H](CC(=O)O)NC(=O)[C@H](CC(C)C)NC(=O)[C@@H](N)CO)[C@@H](C)CC)C(C)C)C(=O)N[C@@H](CCCCN)C(=O)N[C@@H](CCCCN)C(=O)N[C@@H](CC(C)C)C(=O)N[C@@H](CCC(=O)O)C(=O)N[C@@H](CCC(=O)O)C(=O)N[C@H](C(=O)N[C@@H](Cc1ccc(O)cc1)C(=O)N[C@H](C(=O)N[C@@H](CC(=O)O)C(=O)N[C@@H](CC(C)C)C(=O)N[C@@H](CCCCN)C(=O)N[C@@H](CCC(=O)O)C(=O)N[C@@H](CC(C)C)C(=O)O)[C@@H](C)CC)[C@@H](C)O  IC50 (SARS-CoV-2 Delta pseudovirus; pseudovirus infection, inhibitor, luciferase; Caco-2; 24 h, dual mutations): 1.12 µM
O=C(NC1CCN(c2ncnc3[nH]cnc23)CC1)c1cccc(NS(=O)(=O)c2ccc([N+](=O)[O-])cc2)c1  relative infection (SARS-CoV-2; Wuhan-Hu-1; 22.22 µM; relative to: untreated infected cells): 22.2%
CC[C@H](C)[C@H](NC(=O)[C@H](C)NC(=O)[C@H](CCC(=O)O)NC(=O)[C@H](CCC(=O)O)NC(=O)[C@H](CC(C)C)NC(=O)[C@H](CCCCN)NC(=O)[C@H](CCCCN)NC(=O)[C@H](CCSC)NC(=O)[C@H](CCC(=O)O)NC(=O)[C@H](Cc1ccc(O)cc1)NC(=O)[C@H](CCC(=O)O)NC(=O)[C@H](CC(C)C)NC(=O)[C@H](CC(=O)O)NC(=O)[C@H](CC(C)C)NC(=O)[C@H](Cc1ccccc1)NC(=O)[C@H](Cc1ccc(O)cc1)NC(=O)[C@@H](NC(=O)[C@H](CC(N)=O)NC(=O)[C@@H](NC(=O)[C@H](CCC(N)=O)NC(=O)[C@H](CC(=O)O)NC(=O)[C@H](CC(C)C)NC(=O)[C@@H](N)CO)[C@@H](C)CC)C(C)C)C(=O)N[C@@H](CCCCN)C(=O)N[C@@H](CCCCN)C(=O)N[C@@H](CC(C)C)C(=O)N[C@@H](CCC(=O)O)C(=O)N[C@@H](CCC(=O)O)C(=O)N[C@@H](C)C(=O)N[C@@H](Cc1ccc(O)cc1)C(=O)N[C@H](C(=O)N[C@@H](CC(=O)O)C(=O)N[C@@H](CC(C)C)C(=O)N[C@@H](CCCCN)C(=O)N[C@@H](CCC(=O)O)C(=O)N[C@@H](CC(C)C)C(=O)O)[C@@H](C)CC  IC50 (SARS-CoV-2 Gamma pseudovirus; pseudovirus infection, inhibitor, luciferase; Caco-2; 24 h, dual mutations): 1.19 µM
CCOP(=O)(OCC)ON1C(=O)c2cccc3cccc(c23)C1=O  IC50 (carboxylesterase (rat); enzyme activity, inhibitor; rat, postnatal day 70, rat liver homogenate; with: p-nitrophenyl valerate): 0.0057 µM
O=[N+]([O-])c1cc([As](O)O)ccc1O  IC50 (HCC1569; cell viability; 72 h): 9 µM
CC[C@H](C)[C@H](NC(=O)[C@H](C)NC(=O)[C@H](CCC(=O)O)NC(=O)[C@H](CCC(=O)O)NC(=O)[C@H](CC(C)C)NC(=O)[C@H](CCCCN)NC(=O)[C@H](CCCCN)NC(=O)[C@H](CCSC)NC(=O)[C@H](CCC(=O)O)NC(=O)[C@H](Cc1ccc(O)cc1)NC(=O)[C@H](CCC(=O)O)NC(=O)[C@H](CC(C)C)NC(=O)[C@H](CC(=O)O)NC(=O)[C@H](CC(C)C)NC(=O)[C@H](Cc1ccccc1)NC(=O)[C@H](Cc1ccccc1)NC(=O)[C@@H](NC(=O)[C@H](CC(N)=O)NC(=O)[C@@H](NC(=O)[C@H](CCC(N)=O)NC(=O)[C@H](CC(=O)O)NC(=O)[C@H](CC(C)C)NC(=O)[C@@H](N)CO)[C@@H](C)CC)C(C)C)C(=O)N[C@@H](CCCCN)C(=O)N[C@@H](CCCCN)C(=O)N[C@@H](CC(C)C)C(=O)N[C@@H](CCC(=O)O)C(=O)N[C@@H](CCC(=O)O)C(=O)N[C@@H](CO)C(=O)N[C@@H](Cc1ccc(O)cc1)C(=O)N[C@H](C(=O)N[C@@H](CC(=O)O)C(=O)N[C@@H](CC(C)C)C(=O)N[C@@H](CCCCN)C(=O)N[C@@H](CCC(=O)O)C(=O)N[C@@H](CC(C)C)C(=O)O)[C@@H](C)CC  IC50 (SARS-CoV-2 JN.1 pseudovirus; pseudovirus infection, inhibitor, luciferase; Caco-2; 24 h): 0.0418 µM
O=C(Nc1cccc(Cl)c1)Nc1nonc1NC(=O)Nc1cccc(Cl)c1  luciferase signal (SARS-CoV-2 nsp5 C145A; reporter gene, cell-based secondary screen): 107 ± 3%
Cc1ccc(S(=O)(=O)Nc2cccc(C(=O)NC3CCN(c4ncnc5[nH]cnc45)CC3)c2)cc1  inhibition (monkeypox virus E1/E12; 12.5 µM): 2.55% and 9.87%
CC[C@H](C)[C@H](NC(=O)[C@H](C)NC(=O)[C@H](CCC(=O)O)NC(=O)[C@H](CCC(=O)O)NC(=O)[C@H](CC(C)C)NC(=O)[C@H](CCCCN)NC(=O)[C@H](CCCCN)NC(=O)[C@H](CCSC)NC(=O)[C@H](CCC(=O)O)NC(=O)[C@H](Cc1ccc(O)cc1)NC(=O)[C@H](CCC(=O)O)NC(=O)[C@H](CC(C)C)NC(=O)[C@H](CC(=O)O)NC(=O)[C@H](CC(C)C)NC(=O)[C@H](Cc1ccccc1)NC(=O)[C@H](Cc1ccc(O)cc1)NC(=O)[C@@H](NC(=O)[C@H](CC(N)=O)NC(=O)[C@@H](NC(=O)[C@H](CCC(N)=O)NC(=O)[C@H](CC(=O)O)NC(=O)[C@H](CC(C)C)NC(=O)[C@@H](N)CO)[C@@H](C)CC)C(C)C)C(=O)N[C@@H](CCCCN)C(=O)N[C@@H](CCCCN)C(=O)N[C@@H](CC(C)C)C(=O)N[C@@H](CCC(=O)O)C(=O)N[C@@H](CCC(=O)O)C(=O)N[C@@H](CO)C(=O)N[C@@H](Cc1ccc(O)cc1)C(=O)N[C@H](C(=O)N[C@@H](CC(=O)O)C(=O)N[C@@H](CC(C)C)C(=O)N[C@@H](CCCCN)C(=O)N[C@@H](CCC(=O)O)C(=O)N[C@@H](CC(C)C)C(=O)O)[C@@H](C)CC  IC50 (SARS-CoV-2 EG.5.1 pseudovirus; pseudovirus infection, inhibitor, luciferase; Caco-2; 24 h): 0.171 µM
COc1ccc(S(=O)(=O)Nc2cccc(C(=O)NC3CCN(c4ncnc5[nH]cnc45)CC3)c2)cc1  relative infection (SARS-CoV-2; Wuhan-Hu-1; 0.09145 µM; relative to: untreated infected cells): 70%
CC[C@H](C)[C@H](NC(=O)[C@H](C)NC(=O)[C@H](CCC(=O)O)NC(=O)[C@H](CCC(=O)O)NC(=O)[C@H](CC(C)C)NC(=O)[C@H](CCCCN)NC(=O)[C@H](CCCCN)NC(=O)[C@H](CCSC)NC(=O)[C@H](CCC(=O)O)NC(=O)[C@H](Cc1ccc(O)cc1)NC(=O)[C@H](CCC(=O)O)NC(=O)[C@H](CC(C)C)NC(=O)[C@H](CC(=O)O)NC(=O)[C@H](CC(C)C)NC(=O)[C@H](Cc1ccccc1)NC(=O)[C@@H](NC(=O)[C@@H](NC(=O)[C@H](CC(N)=O)NC(=O)[C@@H](NC(=O)[C@H](CCC(N)=O)NC(=O)[C@H](CC(=O)O)NC(=O)[C@H](CC(C)C)NC(=O)[C@H](CO)NC(=O)[C@H](CC(C)C)NC(=O)[C@H](CC(=O)O)NC(=O)[C@@H]1CCCN1C(=O)[C@H](C)N)[C@@H](C)CC)C(C)C)[C@@H](C)O)C(=O)N[C@@H](CCCCN)C(=O)N[C@@H](CCCCN)C(=O)N[C@@H](CC(C)C)C(=O)N[C@@H](CCC(=O)O)C(=O)N[C@@H](CCC(=O)O)C(=O)N[C@@H](CO)C(=O)N[C@@H](Cc1ccc(O)cc1)C(=O)N[C@H](C(=O)N[C@@H](CC(=O)O)C(=O)N[C@@H](CC(C)C)C(=O)N[C@@H](CCCCN)C(=O)N[C@@H](CCC(=O)O)C(=O)N[C@@H](CC(C)C)C(=O)O)[C@@H](C)CC  IC50 (SARS-CoV-2 JN.1 pseudovirus; pseudovirus infection, inhibitor, luciferase; Caco-2; 24 h): 0.118 µM
CC(C)[C@H]1CC[C@@H](N2CCC3(CC2)C(=O)NCN3c2ccccc2)CC1  intrinsic activity (twitch contraction; mouse, mouse vas deferens; dose not given, unit not given; relative to: compound over N/OFQ Emax): > 1

Excerpt of the above:
Cc1ccc(S(=O)(=O)Nc2cccc(C(=O)NC3CCN(c4ncnc5[nH]cnc45)CC3)c2)cc1  inhibition (monkeypox virus E1/E12; 12.5 µM): 2.55% and 9.87%
O=C(NC1CCN(c2ncnc3[nH]cnc23)CC1)c1cccc(NS(=O)(=O)c2ccc([N+](=O)[O-])cc2)c1  relative infection (SARS-CoV-2; Wuhan-Hu-1; 22.22 µM; relative to: untreated infected cells): 22.2%
